Published values collected from several papers.
A part holds a random share of what one study measured. “And” joins repeats or separate records; there may be more than shown.
Chain of UniProt P49759 (whole entry, looked up): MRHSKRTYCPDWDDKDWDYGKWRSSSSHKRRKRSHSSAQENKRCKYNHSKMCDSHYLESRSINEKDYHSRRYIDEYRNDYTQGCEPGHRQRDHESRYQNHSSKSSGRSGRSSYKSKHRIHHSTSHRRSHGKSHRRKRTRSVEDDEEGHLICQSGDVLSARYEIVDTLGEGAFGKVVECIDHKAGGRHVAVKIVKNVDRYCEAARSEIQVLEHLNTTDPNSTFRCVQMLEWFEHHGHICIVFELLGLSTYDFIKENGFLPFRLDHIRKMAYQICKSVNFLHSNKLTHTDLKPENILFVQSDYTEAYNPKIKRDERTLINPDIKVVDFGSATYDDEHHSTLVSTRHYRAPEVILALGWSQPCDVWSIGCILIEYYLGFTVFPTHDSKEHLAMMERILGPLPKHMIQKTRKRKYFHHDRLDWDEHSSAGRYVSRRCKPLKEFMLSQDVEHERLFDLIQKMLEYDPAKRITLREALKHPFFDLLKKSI
Chain of UniProt O43683 (whole entry, looked up): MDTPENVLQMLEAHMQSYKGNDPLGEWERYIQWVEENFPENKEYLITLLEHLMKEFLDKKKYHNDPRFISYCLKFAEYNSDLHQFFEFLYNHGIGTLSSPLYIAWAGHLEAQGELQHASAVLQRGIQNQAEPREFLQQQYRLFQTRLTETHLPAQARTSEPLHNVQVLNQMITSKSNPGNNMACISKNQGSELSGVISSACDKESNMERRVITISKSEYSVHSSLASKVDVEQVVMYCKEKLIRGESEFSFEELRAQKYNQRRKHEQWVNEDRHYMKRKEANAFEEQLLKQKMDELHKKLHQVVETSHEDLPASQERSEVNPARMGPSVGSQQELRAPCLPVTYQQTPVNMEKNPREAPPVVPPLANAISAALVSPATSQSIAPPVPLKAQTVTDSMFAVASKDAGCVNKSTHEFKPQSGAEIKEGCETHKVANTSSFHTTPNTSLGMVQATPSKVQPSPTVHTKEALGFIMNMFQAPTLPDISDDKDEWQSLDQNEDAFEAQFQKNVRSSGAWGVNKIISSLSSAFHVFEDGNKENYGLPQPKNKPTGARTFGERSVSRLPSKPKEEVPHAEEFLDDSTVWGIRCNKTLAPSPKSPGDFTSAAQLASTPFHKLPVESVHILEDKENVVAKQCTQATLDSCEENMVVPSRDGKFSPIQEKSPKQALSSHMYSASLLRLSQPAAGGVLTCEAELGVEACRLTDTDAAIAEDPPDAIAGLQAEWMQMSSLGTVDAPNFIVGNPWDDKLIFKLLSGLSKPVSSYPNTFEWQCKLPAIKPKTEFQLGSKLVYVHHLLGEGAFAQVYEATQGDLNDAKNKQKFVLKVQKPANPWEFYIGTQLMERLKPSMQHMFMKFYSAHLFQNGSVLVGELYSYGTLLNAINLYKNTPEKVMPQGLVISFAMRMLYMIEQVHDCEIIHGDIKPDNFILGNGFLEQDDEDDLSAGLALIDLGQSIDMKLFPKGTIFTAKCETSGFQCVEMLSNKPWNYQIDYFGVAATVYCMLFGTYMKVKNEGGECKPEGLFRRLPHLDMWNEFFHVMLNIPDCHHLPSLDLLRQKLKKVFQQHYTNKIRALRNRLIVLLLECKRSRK
Chain of UniProt P53667 (whole entry, looked up): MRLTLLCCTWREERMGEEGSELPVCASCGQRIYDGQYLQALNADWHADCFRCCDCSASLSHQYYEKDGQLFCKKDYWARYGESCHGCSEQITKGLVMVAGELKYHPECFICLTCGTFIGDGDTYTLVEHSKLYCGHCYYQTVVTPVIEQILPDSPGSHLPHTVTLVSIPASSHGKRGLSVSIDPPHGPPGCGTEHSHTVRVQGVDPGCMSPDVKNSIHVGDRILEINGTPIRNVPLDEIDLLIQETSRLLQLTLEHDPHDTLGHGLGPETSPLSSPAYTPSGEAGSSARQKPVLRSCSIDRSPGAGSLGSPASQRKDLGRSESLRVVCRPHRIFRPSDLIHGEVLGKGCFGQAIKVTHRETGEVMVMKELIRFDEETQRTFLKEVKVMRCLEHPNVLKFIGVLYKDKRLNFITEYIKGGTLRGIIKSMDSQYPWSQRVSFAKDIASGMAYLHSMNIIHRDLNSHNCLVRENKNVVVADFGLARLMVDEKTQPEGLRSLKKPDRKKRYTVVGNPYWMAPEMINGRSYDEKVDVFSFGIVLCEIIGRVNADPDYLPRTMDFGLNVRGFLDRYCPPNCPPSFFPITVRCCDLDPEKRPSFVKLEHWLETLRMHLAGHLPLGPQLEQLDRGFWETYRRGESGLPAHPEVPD
Chain of UniProt Q14004 (whole entry, looked up): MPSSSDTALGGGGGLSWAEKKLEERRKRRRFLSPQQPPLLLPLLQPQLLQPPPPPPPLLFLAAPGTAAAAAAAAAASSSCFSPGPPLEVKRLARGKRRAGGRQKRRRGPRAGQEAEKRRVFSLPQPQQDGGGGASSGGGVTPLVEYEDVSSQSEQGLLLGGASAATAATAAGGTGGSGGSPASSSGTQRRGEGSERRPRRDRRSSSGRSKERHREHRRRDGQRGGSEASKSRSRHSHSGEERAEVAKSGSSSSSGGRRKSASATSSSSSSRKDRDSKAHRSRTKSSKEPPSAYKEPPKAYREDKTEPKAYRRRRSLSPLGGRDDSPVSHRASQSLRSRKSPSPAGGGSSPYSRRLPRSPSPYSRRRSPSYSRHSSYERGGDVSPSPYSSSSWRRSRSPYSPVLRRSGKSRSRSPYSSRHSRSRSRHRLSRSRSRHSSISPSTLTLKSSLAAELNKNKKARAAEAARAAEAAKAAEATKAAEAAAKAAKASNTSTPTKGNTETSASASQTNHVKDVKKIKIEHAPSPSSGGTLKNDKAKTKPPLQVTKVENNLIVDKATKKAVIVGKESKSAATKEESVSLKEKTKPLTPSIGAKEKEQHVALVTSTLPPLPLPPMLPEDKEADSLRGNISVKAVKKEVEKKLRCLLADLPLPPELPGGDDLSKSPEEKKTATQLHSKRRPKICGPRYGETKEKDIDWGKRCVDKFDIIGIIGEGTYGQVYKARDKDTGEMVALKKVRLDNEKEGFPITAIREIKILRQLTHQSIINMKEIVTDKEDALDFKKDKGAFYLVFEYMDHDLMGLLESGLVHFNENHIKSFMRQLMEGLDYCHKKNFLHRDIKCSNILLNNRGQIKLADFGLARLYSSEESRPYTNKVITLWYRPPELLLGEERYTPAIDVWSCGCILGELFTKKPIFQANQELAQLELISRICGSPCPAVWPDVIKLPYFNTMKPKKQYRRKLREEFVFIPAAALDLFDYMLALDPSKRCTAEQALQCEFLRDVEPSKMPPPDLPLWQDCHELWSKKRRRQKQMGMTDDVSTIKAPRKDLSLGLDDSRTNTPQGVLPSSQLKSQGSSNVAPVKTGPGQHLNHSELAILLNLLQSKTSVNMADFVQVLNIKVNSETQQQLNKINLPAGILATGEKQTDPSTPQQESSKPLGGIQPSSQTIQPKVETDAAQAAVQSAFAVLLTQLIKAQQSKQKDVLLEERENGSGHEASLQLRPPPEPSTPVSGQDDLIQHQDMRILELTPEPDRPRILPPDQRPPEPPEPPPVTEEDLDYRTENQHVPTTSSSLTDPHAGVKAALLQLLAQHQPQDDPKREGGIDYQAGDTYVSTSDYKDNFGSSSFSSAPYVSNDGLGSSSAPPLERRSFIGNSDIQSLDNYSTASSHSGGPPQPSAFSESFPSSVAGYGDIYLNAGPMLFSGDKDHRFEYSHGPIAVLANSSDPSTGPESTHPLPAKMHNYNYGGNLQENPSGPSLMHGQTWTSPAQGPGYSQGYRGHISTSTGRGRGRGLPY
Chain of UniProt Q96SB4 (whole entry, looked up): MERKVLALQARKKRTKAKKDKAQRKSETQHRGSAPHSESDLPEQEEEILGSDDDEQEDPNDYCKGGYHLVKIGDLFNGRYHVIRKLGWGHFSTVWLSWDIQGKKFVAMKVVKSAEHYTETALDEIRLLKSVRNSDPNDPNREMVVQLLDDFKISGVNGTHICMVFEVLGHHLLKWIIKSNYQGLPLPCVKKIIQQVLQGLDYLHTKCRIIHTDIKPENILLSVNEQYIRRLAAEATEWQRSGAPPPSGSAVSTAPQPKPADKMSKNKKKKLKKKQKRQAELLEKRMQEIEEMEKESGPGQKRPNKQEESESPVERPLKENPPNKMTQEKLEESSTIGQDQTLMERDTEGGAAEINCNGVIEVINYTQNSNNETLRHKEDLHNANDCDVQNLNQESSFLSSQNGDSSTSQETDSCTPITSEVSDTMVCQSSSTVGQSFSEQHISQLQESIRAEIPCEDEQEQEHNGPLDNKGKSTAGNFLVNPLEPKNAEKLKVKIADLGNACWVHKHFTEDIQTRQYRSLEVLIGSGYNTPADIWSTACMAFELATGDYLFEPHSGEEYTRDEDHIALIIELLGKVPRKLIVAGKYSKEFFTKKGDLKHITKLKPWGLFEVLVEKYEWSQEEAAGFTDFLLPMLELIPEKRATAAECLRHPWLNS
Chain of UniProt P42680 (whole entry, looked up): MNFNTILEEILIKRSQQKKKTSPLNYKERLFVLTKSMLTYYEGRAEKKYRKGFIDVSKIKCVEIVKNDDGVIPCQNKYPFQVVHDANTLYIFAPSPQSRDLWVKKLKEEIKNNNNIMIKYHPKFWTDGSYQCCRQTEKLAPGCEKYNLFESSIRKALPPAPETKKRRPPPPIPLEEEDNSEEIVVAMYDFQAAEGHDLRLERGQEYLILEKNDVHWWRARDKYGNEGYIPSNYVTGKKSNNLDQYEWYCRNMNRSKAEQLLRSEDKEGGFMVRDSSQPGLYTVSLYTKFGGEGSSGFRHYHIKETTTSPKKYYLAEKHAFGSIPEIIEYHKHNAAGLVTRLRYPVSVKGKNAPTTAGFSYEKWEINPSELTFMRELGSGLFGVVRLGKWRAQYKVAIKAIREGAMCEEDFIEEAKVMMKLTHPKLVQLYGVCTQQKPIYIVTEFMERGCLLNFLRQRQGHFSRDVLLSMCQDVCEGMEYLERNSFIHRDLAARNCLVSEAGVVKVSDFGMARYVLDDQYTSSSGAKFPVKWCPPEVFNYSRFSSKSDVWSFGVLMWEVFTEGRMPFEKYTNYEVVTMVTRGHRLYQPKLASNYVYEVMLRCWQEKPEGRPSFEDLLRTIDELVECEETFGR

Block 1
Cell line: mouse MPNST tumor cells
Technique: high-content immunofluorescence imaging
Refers to: nuclear SOX9
Concentration: 10 µM
Time: 12 h
Setting: mean of 2 replicates
Baseline: DMSO control
Reading: higher = more nuclear SOX9
Measurement: nuclear SOX9 intensity
Oc1nc(-c2ccc(C(F)(F)F)cc2)nc2c1CSCC2: 78.2 % of DMSO
O=C(O)C1CCCN(CCC=C(c2ccccc2)c2ccccc2)C1 (stereo not shown): 89.2 % of DMSO
CCCc1c(-c2ccc(O)cc2)nn(-c2ccc(O)cc2)c1-c1ccc(O)cc1: 97.2 % of DMSO
C[C@H](c1ccc(F)cc1CCCC(=O)O)N(c1cc(F)ccc1F)S(=O)(=O)c1ccc(Cl)cc1: 122 % of DMSO
Cc1nc(-c2ccc(OCC(C)C)c(C#N)c2)sc1C(=O)O: 103 % of DMSO and 101 % of DMSO

Block 2
SMILES: Ic1cccc(CSc2nnc(-c3ccncc3)o2)c1
Effect on: enzyme activity
Action: inhibitor
Concentration: 0.5 µM
Baseline: control
Measurement: remaining activity
PAK1 (Homo sapiens, UniProt Q13153): 94.8%
SRPK1 (Homo sapiens, UniProt Q96SB4): 103%
CAMK1 (Homo sapiens, UniProt Q14012): 102%
CLK1 (Homo sapiens, UniProt P49759): 99.8%
TYRO3 (Homo sapiens, UniProt Q06418): 103%
TEC (Homo sapiens, UniProt P42680): 106%
EPHA2 (Homo sapiens, UniProt P29317): 102%

Block 3
Structure (SMILES): COc1ccc2c(c1)O[C@@H](c1ccc(OC)c(OC)c1)C[C@H]2NC(=O)C1(c2ccc3c(c2)OC(F)(F)O3)CC1
Concentration: 1 µM
Measurement: remaining binding
ANKK1 (Homo sapiens, UniProt Q8NFD2); cell-free assay, competition with immobilised ligand: 76%
CSNK1G1 (Homo sapiens, UniProt Q9HCP0); cell-free assay, competition with immobilised ligand: 99%
Tyrosine-protein kinase ABL1, phosphorylated (ABL1, Homo sapiens, UniProt P00519, M351T); cell-free assay, competition with immobilised ligand: 78%
CDC42BPG (Homo sapiens, UniProt Q6DT37); competition binding: 89%
CHEK1 (Homo sapiens, UniProt O14757); cell-free assay, competition with immobilised ligand: 100%
LIM domain kinase 1 (LIMK1, Homo sapiens, UniProt P53667); cell-free assay, competition with immobilised ligand: 100%
CSNK1A1 (Homo sapiens, UniProt P48729); cell-free assay, competition with immobilised ligand: 78%
FLT3 (Homo sapiens, UniProt P36888, D835H); cell-free assay, competition with immobilised ligand: 100%
CDK13 (Homo sapiens, UniProt Q14004); cell-free assay, competition with immobilised ligand: 98%
RIOK3 (Homo sapiens, UniProt O14730); cell-free assay, competition with immobilised ligand: 100%
BUB1 (Homo sapiens, UniProt O43683); cell-free assay, competition with immobilised ligand: 99%
MAP3K6 (Homo sapiens, UniProt O95382); cell-free assay, competition with immobilised ligand: 81%
RET (Homo sapiens, UniProt P07949); cell-free assay, competition with immobilised ligand: 99%
CDC42BPB (Homo sapiens, UniProt Q9Y5S2); cell-free assay, competition with immobilised ligand: 100%

Single results of other studies
COCc1cc(C(=O)Nc2cc([C@H]3CC[C@@H](OC(=O)NC(C)C)C3)[nH]n2)n(C)n1  cell count (NCI-H1048; concentration not given, 6 days, together with: CDK2 inhibitor 500 nM; baseline: DMSO): 0.345 and 0.306 and 0.294
CCC[C@H]1NC(=O)CSC[C@@H](C(=O)OCC)N(C)C(=O)[C@H](CC(C)C)NC(=O)[C@H](C)N(C)C(=O)[C@H](CC(C)C)NC(=O)[C@H](C)N(C)C(=O)[C@H]2CCCN2C(=O)[C@@H](CC(C)C)NC(=O)CN(C)C1=O  logD (hydrocarbon/water): 0.0634

A few entries again (block 1):
CCCc1c(-c2ccc(O)cc2)nn(-c2ccc(O)cc2)c1-c1ccc(O)cc1: 97.2 % of DMSO
Cc1nc(-c2ccc(OCC(C)C)c(C#N)c2)sc1C(=O)O: 103 % of DMSO and 101 % of DMSO
